# Experimental data of several laboratories.
# ± gives the spread as reported.
SMILES,test,system,conditions,Cmax
Cc1cc(-c2nnc(N)nc2-c2ccc(F)cc2)cc(Cl)n1,,"human patients, plasma","oral, 200 mg capsule, single dose, arithmetic mean",943 ng/mL
CC(C)(Sc1ccncc1-c1ccc(C#N)c2ccccc12)C(=O)O,,"human male, plasma","oral, 2.5 mg once daily, day 7 or 21, geometric mean",3.82 ng/mL
O=C(c1nc2n(n1)[C@H](c1ccccc1)C[C@@H]2F)C1CC1,,"humans, plasma","oral, 75 mg single dose, high-fat meal",946 ng/mL
O=C(O)CCCCCCCNC(=O)c1ccccc1O,,"human moderate renal impairment, plasma","oral, dose not given, after tenth daily dose, geometric mean",735 nM
CC#CC(=O)N1CC[C@@H](n2c(=O)n(-c3ccc(Oc4ccccc4)cc3)c3c(N)ncnc32)C1,,"human, plasma","oral, 300 mg twice daily, cycle 1 day 28, fasting",961 ng/mL
COC(=O)[C@H](c1ccccc1Cl)N1CCC(S)/C(=C\C(=O)O)C1 (stereo partly shown),,"human patients, CYP3A4 wt/wt, plasma","oral, 75 mg clopidogrel daily, day 7, median",3.41 ng/mL
COc1ccnc(C[S+]([O-])c2nc3ccc(OC(F)F)cc3[nH]2)c1OC (stereo not shown),,"human, CYP2C19 poor metabolizers, plasma","oral, 40 mg/day, day 1",5940 ± 2450 ng/mL
CCCCCCCCCCCCCCC[C@H](O)[C@@H](N)CO,,"human, phase I, plasma","intravenous, 930 mg/m^2, day 1, monotherapy",25600 nM
C=C(C)[C@@H]1CC[C@]2(NCCN3CCS(=O)(=O)CC3)CC[C@]3(C)[C@H](CC[C@@H]4[C@@]5(C)CC=C(C6=CC[C@@](CF)(C(=O)O)CC6)C(C)(C)[C@@H]5CC[C@]43C)[C@@H]12,,"healthy human volunteers, plasma","oral, 200 mg, tablet, fasted state, mean",449 ng/mL
O=C(CCCCCCC(=O)Nc1ccccc1)NO,,"human, serum","oral, 400 mg three times daily, 3 days, median, with: idarubicin",1550 nM
COc1cc(N2CCC(N3CCN(C)CC3)CC2)ccc1Nc1ncc(Cl)c(Nc2ccccc2P(C)(C)=O)n1,,"healthy human subjects, fasted, plasma","oral, 180 mg",743 ng/mL
CCN1CCN(Cc2ccc(Nc3ncc(F)c(-c4cc(F)c5nc(C)n(C(C)C)c5c4)n3)nc2)CC1,population PK model,"healthy human subjects, plasma","oral, 200 mg single dose",113 ng/mL
Cc1ccc(NC(=O)c2ccc(CN3CCN(C)CC3)cc2)cc1Nc1nccc(-c2cncc(-c3oncc3C)c2)n1,,"older healthy human adults, plasma","oral, 250 mg single dose, fed, mean",7220 ng/mL
COc1ccc(-n2nc(C(N)=O)c3c2C(=O)N(c2ccc(N4CCCCC4=O)cc2)CC3)cc1,,"human male and female, plasma","oral, 10 mg, geometric least squares mean, with: tacrolimus 5 mg daily for 3 days",157 ng/mL
CS(=O)(=O)Nc1ccc(C(=O)O[C@@H](Cc2c(Cl)c[n+]([O-])cc2Cl)c2ccc(OC(F)F)c(OCC3CC3)c2)cc1OCC1CC1,,"human, plasma","inhaled, 300 µg once daily, day 1, single-dose dry powder inhaler",0.179 ng/mL
CCc1cc2c(cc1N1CCC(N3CCOCC3)CC1)C(C)(C)c1[nH]c3cc(C#N)ccc3c1C2=O,"LC-MS, noncompartmental","human patients under sample A years, plasma","oral, 600 mg/day, cycle 1 day 1, geometric mean",84.2 ng/mL
CC(C)(C)OC[C@@H]1C(=O)NCCN1C(=O)C[C@H](N)Cc1cc(F)c(F)cc1F,,human,"10 mg once daily, steady state, day 10",11.5 ± 3.2 ng/mL
CCOc1ccc(Cc2cc([C@]34OC[C@](CO)(O3)[C@@H](O)[C@H](O)[C@H]4O)ccc2Cl)cc1,,"human, plasma","oral, 15 mg, with: sitagliptin 100 mg",266 ng/mL
Nc1ccc(-c2nc([C@H]3CCc4cc(-c5cc(Cl)ccc5-n5cnnn5)cc(=O)n43)c(F)[nH]2)c(F)n1,,"human, plasma","oral, 150 mg once daily, fed, day 1",1060 ng/mL

# For quick reference, copied from above:
SMILES,test,system,conditions,Cmax
CCN1CCN(Cc2ccc(Nc3ncc(F)c(-c4cc(F)c5nc(C)n(C(C)C)c5c4)n3)nc2)CC1,population PK model,"healthy human subjects, plasma","oral, 200 mg single dose",113 ng/mL
Cc1ccc(NC(=O)c2ccc(CN3CCN(C)CC3)cc2)cc1Nc1nccc(-c2cncc(-c3oncc3C)c2)n1,,"older healthy human adults, plasma","oral, 250 mg single dose, fed, mean",7220 ng/mL
